{"data": "Results pooled from the literature", "note": "Numbered parts are unrelated; each lists some results of a single study. Several values in a cell are separate wells, animals, samples, runs or records.", "UniProt P28335, sequence (whole entry, looked up)": "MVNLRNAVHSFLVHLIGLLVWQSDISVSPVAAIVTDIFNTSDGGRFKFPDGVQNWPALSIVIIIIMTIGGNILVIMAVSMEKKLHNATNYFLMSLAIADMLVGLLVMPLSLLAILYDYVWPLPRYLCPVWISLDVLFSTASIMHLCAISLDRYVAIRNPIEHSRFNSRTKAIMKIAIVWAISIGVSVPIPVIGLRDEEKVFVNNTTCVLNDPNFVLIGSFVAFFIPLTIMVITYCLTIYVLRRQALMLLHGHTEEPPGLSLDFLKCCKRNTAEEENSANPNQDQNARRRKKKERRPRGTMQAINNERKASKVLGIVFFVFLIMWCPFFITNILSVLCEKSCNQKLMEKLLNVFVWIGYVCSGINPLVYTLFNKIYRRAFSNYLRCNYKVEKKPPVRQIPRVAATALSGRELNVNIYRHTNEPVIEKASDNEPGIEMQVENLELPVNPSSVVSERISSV", "UniProt P41143, sequence (whole entry, looked up)": "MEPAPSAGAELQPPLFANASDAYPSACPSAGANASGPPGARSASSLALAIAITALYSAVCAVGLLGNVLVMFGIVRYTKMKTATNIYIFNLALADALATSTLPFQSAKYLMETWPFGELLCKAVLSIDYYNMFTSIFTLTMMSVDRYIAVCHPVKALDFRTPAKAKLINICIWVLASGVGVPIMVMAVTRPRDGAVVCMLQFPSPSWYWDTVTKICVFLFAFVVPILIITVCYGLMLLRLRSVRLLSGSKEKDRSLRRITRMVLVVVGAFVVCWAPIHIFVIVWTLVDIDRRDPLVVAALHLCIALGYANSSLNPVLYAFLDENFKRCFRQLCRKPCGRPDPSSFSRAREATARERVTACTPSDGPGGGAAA", "UniProt P08908, sequence (whole entry, looked up)": "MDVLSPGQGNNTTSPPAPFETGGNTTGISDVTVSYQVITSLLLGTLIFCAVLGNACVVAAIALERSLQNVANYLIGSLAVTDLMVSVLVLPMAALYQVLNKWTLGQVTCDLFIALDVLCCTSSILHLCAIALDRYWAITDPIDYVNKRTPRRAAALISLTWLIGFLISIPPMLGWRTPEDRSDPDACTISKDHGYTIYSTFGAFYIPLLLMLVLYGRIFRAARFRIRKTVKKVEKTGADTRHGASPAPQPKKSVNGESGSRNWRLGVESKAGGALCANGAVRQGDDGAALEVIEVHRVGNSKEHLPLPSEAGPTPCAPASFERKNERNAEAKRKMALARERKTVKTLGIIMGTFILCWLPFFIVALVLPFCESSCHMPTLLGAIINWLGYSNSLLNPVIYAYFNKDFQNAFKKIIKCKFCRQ", "UniProt P11229, sequence (whole entry, looked up)": "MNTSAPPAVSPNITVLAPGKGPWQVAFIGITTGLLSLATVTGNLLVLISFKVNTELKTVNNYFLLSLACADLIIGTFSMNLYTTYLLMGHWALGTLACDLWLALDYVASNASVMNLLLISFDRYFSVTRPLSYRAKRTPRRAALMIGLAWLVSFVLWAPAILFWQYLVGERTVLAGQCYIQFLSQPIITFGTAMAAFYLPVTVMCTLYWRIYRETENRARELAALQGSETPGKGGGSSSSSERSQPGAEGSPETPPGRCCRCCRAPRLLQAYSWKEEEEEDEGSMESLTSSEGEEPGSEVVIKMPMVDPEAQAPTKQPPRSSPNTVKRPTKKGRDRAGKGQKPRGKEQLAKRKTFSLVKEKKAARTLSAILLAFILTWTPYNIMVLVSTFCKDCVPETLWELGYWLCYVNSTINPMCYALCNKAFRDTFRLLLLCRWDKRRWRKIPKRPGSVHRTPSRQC"}
{"data": "Study 1", "organism": "Sarcocystis neurona", "read-out": "parasite growth", "concentration": "10 µM", "time": "96 h", "setting": "second screen", "baseline": "untreated"}
{"Structure (SMILES)": "COc1cc2c(cc1OC)[C@@]13CCN4CC5=CCO[C@H]6CC(=O)N2[C@H]1[C@H]6[C@H]5C[C@H]43", "log2 fold change": 0.28}
{"Structure (SMILES)": "CC(O)(CS(=O)(=O)c1ccc(F)cc1)C(=O)Nc1ccc(C#N)c(C(F)(F)F)c1 (centres unmarked)", "log2 fold change": 0.34}
{"Structure (SMILES)": "C=CCN1CC[C@]23c4c5ccc(O)c4O[C@H]2C(=O)CC[C@@]3(O)[C@H]1C5", "log2 fold change": 0.1}
{"Structure (SMILES)": "CCc1nc(N)nc(N)c1-c1ccc(Cl)cc1", "log2 fold change": -1.54}
{"Structure (SMILES)": "CC[C@@H](C(N)=O)N1CCCC1=O", "log2 fold change": 0.29}
{"Structure (SMILES)": "C[C@]12CC[C@H](O)CC1=CC[C@@H]1[C@@H]2CC[C@]2(C)C(=O)CC[C@@H]12", "log2 fold change": 0.2}
{"Structure (SMILES)": "NCCc1ccccn1", "log2 fold change": 0.16}
{"Structure (SMILES)": "NC(=NCc1ccc(Cl)cc1)SCCCc1cnc[nH]1", "log2 fold change": 0.29}
{"Structure (SMILES)": "Oc1ccc2c3c1O[C@H]1[C@@H](O)CC[C@@]4(O)[C@@H](C2)N(CC2CCC2)CC[C@]314", "log2 fold change": 0.56}
{"data": "Study 2", "cell line": "HEK-293T/ACE2", "concentration": "concentration not given", "time": "16 (unit not given)", "baseline": "vehicle"}
{"Structure (SMILES)": "CC(C)CC(N(C)C)C1(c2ccc(Cl)cc2)CCC1 (centres unmarked)", "viability [%]": 97.3}
{"Structure (SMILES)": "CCCCNc1cc(C(=O)O)cc(S(N)(=O)=O)c1Oc1ccccc1", "viability [%]": 96.8}
{"Structure (SMILES)": "CCOc1nc2cccc(C(=O)OC(C)OC(=O)OC3CCCCC3)c2n1Cc1ccc(-c2ccccc2-c2nnn[nH]2)cc1 (centres unmarked)", "viability [%]": 68}
{"Structure (SMILES)": "COCC(=O)Nc1c(I)c(C(=O)NCC(O)CO)c(I)c(C(=O)N(C)CC(O)CO)c1I (centres unmarked)", "viability [%]": 99.4}
{"Structure (SMILES)": "NC(=O)N1c2ccccc2CC(=O)c2ccccc21", "viability [%]": 96.4}
{"Structure (SMILES)": "CC(=O)OCC(=O)[C@@]12OC3(CCCC3)O[C@@H]1C[C@H]1[C@@H]3CCC4=CC(=O)C=C[C@]4(C)[C@@]3(F)[C@@H](O)C[C@@]12C", "viability [%]": 99.9}
{"Structure (SMILES)": "CC(C)(C)NCC(O)c1cc(O)cc(O)c1 (centres unmarked)", "viability [%]": 103}
{"data": "Study 3", "SMILES": "CNC(=O)c1ccc(-c2cnn3ccc(C(=O)N(C)c4ccc(Cl)c(C(=O)OC)c4)cc23)cc1", "organism": "Cryptosporidium parvum", "species": "neonatal calves"}
{"dose": "dose not given", "time": "day 6 post-treatment", "fecal oocyst count": "2120 oocysts/g feces and 0 oocysts/g feces and 82 oocysts/g feces and 36 oocysts/g feces and 473 oocysts/g feces and 354 oocysts/g feces"}
{"dose": "10 mg/kg twice daily", "time": "day 0 post-treatment", "fecal oocyst count": "27600 oocysts/g feces and 3520 oocysts/g feces and 89800 oocysts/g feces and 77100 oocysts/g feces and 30700 oocysts/g feces and 10600 oocysts/g feces and 126000 oocysts/g feces"}
{"method": "qPCR", "dose": "dose not given", "time": "day 7 post-treatment", "fecal oocyst count": "40 oocysts/g feces and 27 oocysts/g feces and 0 oocysts/g feces and 244 oocysts/g feces and 17 oocysts/g feces and 247 oocysts/g feces"}
{"method": "qPCR", "dose": "dose not given", "time": "day 2 post-treatment", "fecal oocyst count": "1830 oocysts/g feces and 10200 oocysts/g feces and 61 oocysts/g feces and 97700 oocysts/g feces and 4360 oocysts/g feces and 133000 oocysts/g feces and 573 oocysts/g feces"}
{"method": "qPCR", "dose": "dose not given", "time": "day 14 post-treatment", "fecal oocyst count": "0 oocysts/g feces and 43 oocysts/g feces"}
{"method": "qPCR", "dose": "dose not given", "time": "day 3 post-treatment", "fecal oocyst count": "4060 oocysts/g feces and 12600 oocysts/g feces and 4860 oocysts/g feces and 74 oocysts/g feces and 4870 oocysts/g feces and 1250 oocysts/g feces"}
{"data": "Study 4", "SMILES": "CNC(=O)c1cc(C(=O)N[C@H]2[C@@H]3COC[C@@H]32)cc2c1O[C@H](CF)[C@H]2c1ccccc1", "concentration": "10 µM"}
{"target": "HTR2C (Homo sapiens, UniProt P28335)", "read-out": "binding", "method": "radioligand binding", "inhibition [%]": 22.2}
{"target": "HTR1A (Homo sapiens, UniProt P08908)", "read-out": "cell-free assay", "inhibition [%]": 8.96}
{"target": "CHRM1 (Homo sapiens, UniProt P11229)", "read-out": "binding", "method": "radioligand binding", "inhibition [%]": -14.7}
{"target": "OPRD1 (Homo sapiens, UniProt P41143)", "read-out": "binding", "method": "radioligand binding", "inhibition [%]": 2.46}
